Results from different studies.
A part holds a random share of what one study measured.

Study 1
Target: Sal-like protein 4, full length isoform B (SALL4, Homo sapiens, UniProt Q9UJQ4-2, residues 1-616)
Method: universal PBM
Form: double-stranded DNA, one strand shown
Medium: in vitro
Concentration: not given
Setting: 8-mer, flanks averaged, mean of replicates
Reading: higher = stronger binding
| Strand | E-score |
| --- | --- |
| CGCAGAAC | -0.0447 |
| ACCTTTCG | -0.0968 |
| GTTGGGGA | -0.241 |
| CGGCAAGA | -0.0292 |
| GTAGTCAA | 0.0528 |
| CTGAGCAC | -0.234 |
| GGGCCGCA | -0.304 |
| GGACCGTA | -0.18 |
| ACCATCGC | -0.0672 |
| TACAGCTA | -0.0333 |
| ATCTATGC | 0.115 |
| CACTTCTG | -0.0915 |
| GTGTCAGA | -0.0431 |
| CAGACTTC | -0.1 |
| CGGCCAAC | -0.267 |
| ACTCGCCA | -0.0721 |
| AAGCCGGA | -0.176 |
| GATTCCGA | -0.0974 |
| AATGAGGT | 0.191 |
| AAAGAATA | 0.309 |
| CCTTCAGC | -0.256 |

Study 2
Target: RNA binding protein fox-1 homolog 2, RRM domain, GST-SBP tag (RBFOX2, Homo sapiens, UniProt O43251-10, residues 100-194)
Method: RNA Bind-n-Seq
Form: RNA
Medium: in vitro
Concentration: 365 nM
Setting: natural RNA segment, single round, ends assumed
Relative to: no-protein control
Reading: higher = stronger binding
Shared flanks, not repeated: GGGAGUUCUACAGUCCGACGAUC … UGGAAUUCUCGGGUGCCAA
Construct (chain): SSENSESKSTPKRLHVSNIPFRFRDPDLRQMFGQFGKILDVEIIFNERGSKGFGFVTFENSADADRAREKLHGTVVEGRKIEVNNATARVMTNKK
| Strand | RBNS enrichment (R) |
| --- | --- |
| UCCACGCCUGUACAUUUCAGAUGGCAGCGAUUUGGGUCCUUGGGGCUUUUGGCCCUUGGCCAGAAGUGCAUGCUUUUCCUGAGCAGAGCACUUAGCAACCUUCCCCUCUC | 0.467 |
| AGUCCAGGACUGGGUCUGACCUGGUGGGAGCACCUGCCAGAGGAUGCUCUUUCCCAGGACGGAUGGGCCCUAUGUCUCAGGAGUGGGGUUGGGGGACAGCCUUCAGCAGC | 0.227 |
| AGCGAUCAUUUUAUUUUAUUUUAUUACUUUUGUUUUUAAUUUUAACCAUAGUGCACAUAUUCCAGGAAAGUGUCUUUAAAAACAAAAACAAACCCUGAAAUGUAUAUUUG | 0.936 |
| GCAGGUUAGCGUUGAAGGUGGUAUGGAAAAGCCUGCAUGCCUGUUCAAUUCUUUUGUUUCUUCUCCUUCCCCCUCCCCCUACCUCCUUCCCCUCACUCCUCCCCUCCUUC | 14.4 |
| CAGUGUCUCCUAACAAACUAGUACUGGACUUACAGUACUGCCAAAUCUUUGUUAAGUUUCAUGAUGUGUUAGUACACUGUUCUAUUGCUGUAAAGAGACACCAUGACAAA | 0.312 |
| UGCCUGAUGGCUUAGCCUGGAGACCUCCUCAUUGCCAAAGUUGUUCCCAUGCCACAAAGCAUCUCUCCACCCCCUUUUCAAGGAAUGCAGUUCUACAAACUGAUCUCCUU | 0.448 |
| UCUAGUUGCCAAUUGUCUUCAGAGUGUGAAAAUUUAAAUCCUUCUUGAAGUAUCUUUCGUGAGAGUAGUAUGGAAGUAAAACGUUCUCAUAUCAGGAGGAUGUCAUUUGU | 0.398 |
| GCUGUCUGUUGGGGGUUACAAGCAAGGUGGUAAACGUUAAGCUAGUAUCAUAGUCAUUUAAACCUGGAUAGAUUGUAACCAUUUUCCCUUCACUCUGACACUGUCUUAUU | 0.396 |

Study 3
Target: Fragile X messenger ribonucleoprotein 1, C-terminal low-complexity region (Fmr1, Mus musculus, UniProt P35922)
Method: RNA Bind-n-Seq
Form: RNA
Medium: in vitro
Concentration: 200 nM
Setting: whole 134-nt RNA, ends assumed
With: 150 mM LiCl
Relative to: input library
Reading: higher = stronger binding
All molecules: 7-deaza-guanosine replaces G
Shared flanks, not repeated: GGGAGUUCUACAGUCCGACGAUC … UGGAAUUCUCGGGUGUCAAGG
| Strand | log2 enrichment |
| --- | --- |
| GUCCUGUGCUACACAUCGUAUGUACCGAAUCGGAAAAAAAGGAAAAAGGUUUUUUUGGAAAGUAUUAUGUUACGCCGUUCGGAUCUGCAC | -2.54 |
| CCUGUGCUACACAUCGUAUGUACCGAAUCGGGGCCCCCCGGGGCCCCCCGGGCCCCCCGGAAAGUAUUAUGUUACGCCGUUCGGAUCUGC | -2.33 |
| GUCCUGUGCUACACAUCGUAUGUACCGAAUCGGUUUUUGGUUUUUUUGGAAAAAAAGGAAAGUAUUAUGUUACGCCGUUCGGAUCUGCAC | -2.26 |
| CACAGACAACACGCACCCACACAGACACAGAGGGAAGGGGUUGGGAUGGGGACAGGGUGCACAGCAGGGCGGGGUAAGACCCCAGCCCCU | 1.82 |
| CUGUGCUACACAUCGUAUGUACCGAAUCGGCCCCCCCGGGCCCCCCCGGGCCCCCCCGGGGAAAGUAUUAUGUUACGCCGUUCGGAUCUG | -0.805 |
| GCAGGAAGUAAAAACAAAUGGAAAUGCUUCGGAUAGUGGCAGGGGUGGGGGUUCCUAAGGAAAGGGUGGGAUGGGAGUGGGUAAAGAGUU | 1.12 |
| CAAGUCCUGUGCUACACAUCGUAUGUACCGAAUCGGGGUUUGGGUUUGGGUUUGGAAAGUAUUAUGUUACGCCGUUCGGAUCUGCACUUC | -0.996 |
| AAGUCCUGUGCUACACAUCGUAUGUACCGAAUCGGGGAGGGGAGGGGUUUUUGGGGAAAGUAUUAUGUUACGCCGUUCGGAUCUGCACUU | 0.164 |

Study 4
Target: RING finger protein unkempt homolog, zinc fingers 1-6, GST-SBP tag (UNK, Homo sapiens, UniProt Q9C0B0, residues 30-357)
Chain of UniProt Q9C0B0 (30-357, looked up): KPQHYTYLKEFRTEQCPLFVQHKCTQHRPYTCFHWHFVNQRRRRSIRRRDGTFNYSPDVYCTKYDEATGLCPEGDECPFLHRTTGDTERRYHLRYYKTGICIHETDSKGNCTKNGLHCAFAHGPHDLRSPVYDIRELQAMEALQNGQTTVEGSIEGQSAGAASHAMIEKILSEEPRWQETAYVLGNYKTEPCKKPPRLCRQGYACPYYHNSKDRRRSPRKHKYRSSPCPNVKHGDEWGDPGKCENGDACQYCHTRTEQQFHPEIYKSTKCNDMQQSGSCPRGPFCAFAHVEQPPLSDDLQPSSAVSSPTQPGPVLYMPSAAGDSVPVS
Method: RNA Bind-n-Seq
Form: RNA
Medium: in vitro
Concentration: not given
Setting: RNA with constant flanks, human-mouse chimeric sites, ends assumed
Relative to: input RNA pool
Reading: higher = stronger binding
Shared flanks, not repeated: GGGAGUUCUACAGUCCGACGAUC … CAACAGAGGAUUGAGCAUCA
| Strand | bound/input enrichment [ratio] |
| --- | --- |
| UGGCGCCUCCCAUUUUUACUCGUGUUUUUAAGUGUAUUUUUAUAAGAUACAUGUAUUUGUAAUAGAUCUUUUGUUACAUAAUGCUGAAAUGCUACUGGAGAUUAUGAAAAAUGUUUCAAU | 0.675 |
| CAGACUGUGUCAUACUUUUUAGACAUUCACAUCAGACGCCUUACUACCCUGGCCACAUUCUAGGUUUGUGUUAUUUCUCAGCUAUGGAUAUGAUCAAAUGAGAACACUGCUUAACUAAUG | 0.951 |
| GGCCUGGGACCGUCCUGGGCUAGUACAAAUAGCGGCAGUGGAGGCUCGAGAGGAAAGUUUGUUAGUGGAGGCAGUGGUAGAGGCCGUCAUGUACGGUCUUUACACGAUAAAAAUCCUUCU | 0.245 |
| GCUCUUGGCAAUGUAAUCAGCGCCUUGGGGGACAAGAGCAAGAGAGCCACCCAUGUCCCUUACAGAGACUCUAAGCUGACAAGACUCUUGCAGGAUUCCCUUGGGGGUAAUAGCCAAACC | 0.172 |
| UAAGUUAUUUUGUACAGUAAGUUAUUUUCUUAACAUUAAUUUGUAAACAUGUUUAUUUUGUUUGGGUAAUUUGGUUCAUUAAGUACAUAGCUAAGGUAAUGAACAUCUUUUUCAGUAAUU | 0.775 |
| GCUCCUCCCCGCUCUGCCCCUGCCUGCCACUGGGCUGGGACCAGAAUCCAGCUUUCUUUUAAUAGUGUCAGUGUAACUGUAUCCCGUGACAUUUCAUUUUUUUUAAAUAGUGUAUUUUUU | 7.75 |
| AUCAAGUACUUUGGGGACAUCAUUAGUGUGGGACAGAGACUGUUGCAAGGAGCUCGGAUUUUAGGAAUUCCAGUUAUCAUAACGGAACAAUACCCCAAAGGACUUGGCAGCACCGUUCAA | 0.362 |
| GUUGCCAGCUUCCGGUUCCGUUGGGCUCGGUUCUCUCCUGAGCUACGGUCCCUGGCACUCUCAAUCCCGGUUGGGUAAAACAUGGAUCAGGUAAUGCAGUUUGUGGAGCCCAGCCGGCAG | 0.155 |
